Measured values from different studies.
Lines come from different studies, so protocols differ. Values joined by “and” are separate records of one study, mostly repeats; a detail may differ.
Target: Calcium/calmodulin-dependent protein kinase type II subunit alpha (CAMK2A, Homo sapiens, UniProt Q9UQM7)

Compound	effect on	mode	method	concentration	reference	measurement	result
C=CC(=O)Nc1cccc(-c2cnc3[nH]cc(C(=O)NC(C)(C)C)c3n2)c1	kinase activity			0.1 µM		inhibition	0%
NC(=O)C[C@H]1CCc2sc3ncnc(O[C@H]4CC[C@H](N5CCOCC5)CC4)c3c21	enzyme activity	inhibitor		10 µM		inhibition	21%
CN1CCN(Cc2ccc(-c3ccc(CO[C@H]4CCC[C@@H]4NC(=O)c4cc(-c5cnn(C)c5)cnc4N)cc3)cc2)CC1	enzyme activity	inhibitor		0.1 µM		inhibition	-1%
COc1cc(Nc2nccc(-c3cnn4nc(OC)ccc34)n2)cc(C(F)(F)F)c1	binding		competition with immobilised ligand	1 µM		remaining binding	100%
CNC(=O)C1CCN(c2cc(C)c(F)cc2NC(=O)c2ccc(-c3cc(O)ccc3C)c(C)c2)CC1	binding		competition with immobilised ligand	1 µM		remaining binding	97%
Cc1cccc(O[C@H]2CCC[C@@H](C(C)CNCc3ccncc3)C2)c1 (relative stereo)	enzyme activity	inhibitor		1 µM		inhibition	4%
Nc1ncc2c(n1)-c1c([nH]c3ccc(C4=CCOCC4)cc13)CCC2	binding		competition with immobilised ligand	1 µM		remaining binding	84%
O=C(Cc1ccc(OCc2ccccc2)cc1)NC1(C(=O)O)CCN(C(=O)c2ccc(-c3cccc(Cl)c3)cc2)CC1	enzyme activity	inhibitor		10 µM		activity vs control	86%
C=CC(=O)N1Cc2nc(-c3cc(-c4cc(Cl)cnc4Cl)c(F)cc3F)n(-c3ccncn3)c2C1	cell-free assay	inhibitor		1 µM		inhibition	4.4%
C=CC(=O)N1CCCC(n2c(=O)c3ncccc3n(Cc3ccc(Oc4ccccc4)cc3)c2=O)C1 (stereo not shown)	cell-free assay		competition with immobilised ligand	1 µM		remaining binding	97%
CNC1C[S+]2CC[S+]3CC[S+](C1)[Ru-4]321([N]=C=S)[n]2c3ccc(OC)cc3c3c4c(c5cc(F)c[n+]1c5c32)C(=O)NC4=O (stereo not shown)			KinomeScan	0.1 µM	untreated	remaining binding	44%
COCC12C(=O)NC3C4(C(OC)CC1O)C1CC5(O)C(OC)C(O)C(OC(C)=O)(C1C5OC(=O)c1ccccc1)C3(O)C(OC)C24 (stereo not shown)	kinase activity	inhibitor	ProQinase kinase profiling	25 µM	control	remaining activity	85% and 84%
CN1CC[C@@H](COc2cnc(C#N)cc2-c2ccn3nc(NC(=O)C4CC4)cc3c2)C1	enzyme activity	inhibitor		1 µM		inhibition	7%

A few entries again:
Compound	effect on	mode	method	concentration	reference	measurement	result
C=CC(=O)N1Cc2nc(-c3cc(-c4cc(Cl)cnc4Cl)c(F)cc3F)n(-c3ccncn3)c2C1	cell-free assay	inhibitor		1 µM		inhibition	4.4%
C=CC(=O)Nc1cccc(-c2cnc3[nH]cc(C(=O)NC(C)(C)C)c3n2)c1	kinase activity			0.1 µM		inhibition	0%
